# Experimental data pooled from the literature.
# Each numbered part is a random draw from the data of one study; scales do not carry over between parts. Positions count from the first letter of the parent shown.

# Series 1
# Target: ABI1, truncated, D143A, DHFR fusion (Arabidopsis thaliana)
# Method: DHFR PCA, deep sequencing
# Medium: yeast
# Setting: methotrexate growth selection, single substitutions
# Added: (+)-ABA 17 µM
# Relative to: wild-type fitted maximum
# Reading: higher = stronger binding
# Starting sequence: PYL1, truncated, DHFR fusion (Arabidopsis thaliana); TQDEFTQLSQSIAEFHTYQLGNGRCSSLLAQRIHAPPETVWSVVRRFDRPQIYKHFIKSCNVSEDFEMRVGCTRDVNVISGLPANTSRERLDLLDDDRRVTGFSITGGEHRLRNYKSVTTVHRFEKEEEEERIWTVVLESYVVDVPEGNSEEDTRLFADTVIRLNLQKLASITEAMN
Substitution,relative binding score [%]
N85D,72.9
R163Y,7.93
R132V,90.9
R155P,-9.26
P83M,8.48
K116Q,78.9
I52Y,72
D75E,90.1
L82F,45.8
V142Q,81.4
H122W,-6.82
I105Y,-35.9
H55K,87.4
T120A,10.6
T86K,66.1
G21A,84.3
D65V,57.5
Y115P,-6.99
F66C,70.1

# Series 2
# Target: CCNB2, cyclin fold, Cln2 fusion (human)
# Method: yeast growth competition, sequencing
# Medium: yeast
# Setting: weak parent motif
# Relative to: not given
# Reading: higher = stronger binding
# Starting sequence: WEE1 docking peptide (human); HKTFRKLRLFDTP
Substitution,normalised enrichment score
T12Q,0.543
R8C,0.548
F4L,0.478
F4S,0.641
R5K L9F,-0.404
F10R,0.923
H1G,0.799
K6H,0.247
T3D,0.154
L7F,0.115
K2G,-0.0938
T3P,0.623
T12F,0.535
T3I,0.248
R5K,0.14
K6C,0.109
H1P,0.905

# Series 3
# Target: Prothrombin, mature alpha-thrombin (F2, Homo sapiens, UniProt P00734)
# Method: aptamer microarray, sandwich
# Form: DNA with 2'F-ANA
# Medium: in vitro
# Concentration: 200 nM
# Setting: whole 15-mer aptamer, many near background
# Added: Cy3 exosite-II aptamer, 400 nM
# Reading: higher = stronger binding
# Oligonucleotide: GGTTGGTGTGGTTGG
Modification,mean fluorescence intensity
2'F-ANA at 1 8 10 12 15,75.5 a.u.
2'F-ANA at 2 3 5 6 8 9 10 11 13,57.5 a.u.
2'F-ANA at 1 2 5 6 7 8 9 10 12 13 14 15,60.2 a.u.
2'F-ANA at 1 5 6 8 12 13 14,47 a.u.
2'F-ANA at 1 2 3 4 6 7 8 11 14,101 a.u.
2'F-ANA at 3 4 6 7 8 14,335 a.u.
2'F-ANA at 1 2 4 6 11 12 13,134 a.u.
2'F-ANA at 4 6 9 12 13 14 15,75 a.u.
2'F-ANA at 1 2 3 6 7 10 15,64.4 a.u.
2'F-ANA at 3 4 5 6 7 8 9 10 14 15,48.2 a.u.
2'F-ANA at 1 3 5 6 8 9 12 13 14 15,46 a.u.
2'F-ANA at 2 3 8 10 11 12 14,314 a.u.
2'F-ANA at 1 2 6 12 15,300 a.u.
2'F-ANA at 6 8 10 11 12,181 a.u.
2'F-ANA at 2 4 6 8 13 15,185 a.u.
2'F-ANA at 5 9 11 12 13 14 15,46.7 a.u.
2'F-ANA at 3 4 9 11 12 13 14 15,321 a.u.
2'F-ANA at 3 4 6 7 8 10 11,240 a.u.
2'F-ANA at 1 4 5 6 7 9 11 14,45.7 a.u.
2'F-ANA at 1 2 3 6 7 8 11 14,68 a.u.
2'F-ANA at 3 6 7 8 9,1110 a.u.
2'F-ANA at 1 2 3 5 13,109 a.u.
2'F-ANA at 2 4 5 7 8 9 11 12 13 14,49.5 a.u.

# Series 4
# Target: RNA binding protein fox-1 homolog 2, RRM domain, GST-SBP tag (RBFOX2, Homo sapiens, UniProt O43251-10, residues 100-194)
# Method: RNA Bind-n-Seq
# Form: RNA
# Medium: in vitro
# Concentration: 365 nM
# Setting: natural RNA segment, single round, ends assumed
# Relative to: no-protein control
# Reading: higher = stronger binding
# Construct (chain): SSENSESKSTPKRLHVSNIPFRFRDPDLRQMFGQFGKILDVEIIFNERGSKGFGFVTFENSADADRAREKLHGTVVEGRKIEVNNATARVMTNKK
Oligonucleotide,RBNS enrichment (R)
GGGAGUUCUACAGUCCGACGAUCCCACCACCACCUUUUUUCUUUAUUUUAACUGUCAUCAGAAAUUACAUUUGUCAUGUGGGAAGAAUUUAGAUUAUGAUGCAGGAAAUUUCUUCCUGGGGUCAGAAGUUUCUUGGAAUUCUCGGGUGCCAA,0.399
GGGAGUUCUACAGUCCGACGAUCGAGGGUCUACACAGCAAGAGAACAGAAAUACUGUGUCUCAUGAAGGAUCACAGAGUUCAGGGGGAAAAUGUGACAGCACACGCACAAACGCCUUCACUGGAUCAGCCGCUUGGAAUUCUCGGGUGCCAA,2.05
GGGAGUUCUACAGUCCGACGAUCCCUAAGUGAUGAAACUAGCUGUAAGAAUGUAACAGGGGUUGUGUUUGAAAUAUUUAUAUUCCCAUCGGUGUGUUUAGUCCUAGAAAAUUGCUAGCAGCAGUCUUCUUCACUGGAAUUCUCGGGUGCCAA,2.65
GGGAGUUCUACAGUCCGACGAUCGAAUGUGGACCUCUGAGCAUCCACGCAGGAUGGCUCUCAGGUCCCAGUCACAGACGUCGCUUCCUGGGAUUCCAGCACGAUGCCUCCAUAGUUGAAAGACUACACAAAAAUGGAAUUCUCGGGUGCCAA,1.61
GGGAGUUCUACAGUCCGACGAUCUUUUUACUGUACCUUUUCUAUGUCUAAAUAUACAAAUGUUUUACCAUUGUGUUACAGUUGCCUACAGUAUGAUUACAGUAACAUUCUGUACAGUGCUAUAGCUGAAGAGUUGGAAUUCUCGGGUGCCAA,0.314
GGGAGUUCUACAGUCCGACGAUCUUGAAAACCCAUGCUGUGAACUGUUUUACAAACUUACAGAGAUAAAUGCAUUUGAUUAUCCUGAUUUACCAGUUGUGAGAGGCAAGAAAUUUGUUGAGUCUGUAUAUAAAUGGAAUUCUCGGGUGCCAA,2.33
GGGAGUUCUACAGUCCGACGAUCUAUAAGUGACUUUAAACUUUCCCUUGGCUGUUAAGAAGUUUGUUAUAGAUUUAGCUAUUUAUUGUUCGAUGCCUGCAUGCUGAAACAAUGCCUACAGCUGUCUUCACAUGUGGAAUUCUCGGGUGCCAA,3.29
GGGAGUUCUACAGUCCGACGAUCCCGUUUGCUUUGGAAAAAACAAAACAAAACAAAACAAAACAAAAAACAAAAACACUGCGCAUUUCAAUCAUCUGCACCUUUCCCUCGUUUUGCAUUAGUACUGAAAUCUGUGGAAUUCUCGGGUGCCAA,0.96

# Series 5
# Target: Histone acetyltransferase KAT6A, both winged helices, GST fusion (KAT6A, Homo sapiens, UniProt Q92794, residues 1-181)
# Method: protein binding microarray
# Form: double-stranded DNA, one strand shown
# Medium: in vitro
# Concentration: not given
# Setting: 8-mer, flanks averaged, mean of 2 arrays, mostly near background
# Relative to: not given
# Reading: higher = stronger binding
# Target sequence (chain): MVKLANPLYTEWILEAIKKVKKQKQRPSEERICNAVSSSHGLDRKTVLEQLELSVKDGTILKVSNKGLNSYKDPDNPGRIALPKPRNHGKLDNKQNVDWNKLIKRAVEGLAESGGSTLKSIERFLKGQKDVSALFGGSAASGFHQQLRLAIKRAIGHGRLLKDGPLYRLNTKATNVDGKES
Oligonucleotide,E-score
ACAACCAC,-0.0425
CCTCTGTA,-0.114
CACAGACC,0.051
GAGCTTAA,-0.146
GGAAGTAC,0.137
AACTAGAT,-8.5e-05
CCGTAGAG,0.136
GTGAGCGA,-0.0764
AGACGCCA,0.12
GAGAACTA,-0.0585
ATATGAAG,-0.00889
ACTTAATA,-0.0868
GGTGCGCA,0.226
CTGGTCAA,-0.127
GGTTCACA,0.134
ATTACATC,0.0359
AACGGTAA,0.175
CTGGACCA,-0.196
CCGGCAGC,0.243
GTAAAGTA,0.0069
TGGCTGAA,-0.0876
CTTCTCTA,-0.226
GAATATCC,0.0121
GTCCGCGA,0.174
GATTTGAA,-0.064

# Repeated from above (series 3):
Modification,mean fluorescence intensity
2'F-ANA at 1 2 4 6 11 12 13,134 a.u.
2'F-ANA at 1 2 3 6 7 8 11 14,68 a.u.
2'F-ANA at 1 2 3 5 13,109 a.u.
2'F-ANA at 1 4 5 6 7 9 11 14,45.7 a.u.
2'F-ANA at 5 9 11 12 13 14 15,46.7 a.u.
2'F-ANA at 1 3 5 6 8 9 12 13 14 15,46 a.u.
2'F-ANA at 3 4 5 6 7 8 9 10 14 15,48.2 a.u.
